Assay results collected from several papers.
Parts stem from different laboratories: compare values within a part only. Changes are numbered by the printed parent chain.

Study 1
Target: CCNB3, cyclin fold, Cln2 fusion (human)
Technique: yeast growth competition, sequencing
Matrix: yeast
Setting: weak parent motif
Baseline: not given
Reading: higher = stronger binding
Parent: ITGB3BP docking peptide (human); MPVKRSLKLDGLL
Substitution | normalised enrichment score
MPVARSLKLDGLL [K4A] | 0.385
APVKRSLKLDGLL [M1A] | -0.0565
MPVKKSLKFDGLL [R5K L9F] | 0.502
MPVKRSLALDGLL [K8A] | 0.362
MPVKRSLKLDALL [G11A] | 0.243
MPVKASAKLDGLL [R5A L7A] | 0.0109
MPVKRSAKLDGLL [L7A] | 0.141
MPVKRSLKLAGLL [D10A] | -0.104
MPVKASLKLDGLL [R5A] | 0.041
MPVKKSLKLDGLL [R5K] | 0.181

Study 2
Target: RING finger protein unkempt homolog, zinc fingers 1-6, GST-SBP tag (UNK, Homo sapiens, UniProt Q9C0B0, residues 30-357)
Technique: RNA Bind-n-Seq
Form: RNA
Matrix: in vitro
Concentration: not given
Setting: RNA with constant flanks, ends assumed
Baseline: input RNA pool
Reading: higher = stronger binding
Constant ends, left off below: GGGAGUUCUACAGUCCGACGAUC … CAACAGAGGAUUGAGCAUCA
Target sequence (chain): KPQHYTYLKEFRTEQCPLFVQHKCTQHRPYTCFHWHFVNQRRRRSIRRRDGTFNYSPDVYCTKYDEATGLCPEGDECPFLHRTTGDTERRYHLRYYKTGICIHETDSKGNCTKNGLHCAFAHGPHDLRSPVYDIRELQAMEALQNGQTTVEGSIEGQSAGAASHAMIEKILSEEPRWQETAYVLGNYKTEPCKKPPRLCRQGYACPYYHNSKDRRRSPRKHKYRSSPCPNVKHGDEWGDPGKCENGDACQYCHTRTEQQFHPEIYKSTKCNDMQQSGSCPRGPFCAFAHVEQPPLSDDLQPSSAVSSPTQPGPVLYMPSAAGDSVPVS
Strand | bound/input enrichment [ratio]
AACAGAAUCAAACUAAGCCAUGUAUGAGGGUAAUCGAGAUGAGGAUAUUAACUCAAAAGAAACCGGGUGAUUUUUAAAGGAUUAAUAAAAUUCUGAAAUGUUAAGUAGAAGAUUACAUUG | 0.408
UGAAACAGGGAGAGGCUGACACCCCCCCACCCUCCACCCCCGUGUCCACAACCCCCAACCCCGCUGUCUUCUCAGGGCCUGCCACCCAAAUAAGUCUGGCCCUAGCCUCAACUCUCUCUC | 0.661
ACAGAUUUACUGAGAUUAUUUGAAUAUGGAGGUUUCCCACCAGAAGCCAACUAUCUUUUCUCCGGAGAUUAUGUGGACAGAGGAAAGCAGUCUUUGGAAACCAUUUGUUUGCUAUUGGCU | 0.622
UGGCCAUAUUUCCCUAGACGUUAUCCUCUGCCUUGUCAGUUUGUUUGUCUGUGGCUUUUUUUCCGGGGAGGGGGAAGAGAUGGGCAGCUGUAACAAGUAGCCCAGAUAGAUCUAUGGGUG | 0.842
AAACUGACAGAGCUCCUCCGAUACUACAUGCUCAACAUAGAGGCUGCAAAGGAUCUCUUGUACCGACGUACCAAAGCCCUAAUUGACUAUGAGAAUUCAAACAAAGCUUUGGACAAGGCC | 0.0854
CUCAAAGAAUUGCUUUCUUGGAAAGUUUUGAGCACAGAAGACUAUACAACCUGUUUUUCCCGCAGAAAUUUUCUAAAUGAAGCAGUGGACUAUGUUAUUCGCCACUUGAUUCAAGAAAAU | 0.111
GAGGAAGGACUGAAGACAGCGGACCCUCAUGACUGCUCUGCAUAUACUGGUUGGACAGGCACCGCACUUUUGUACCUGCAGCUGUACCGGGUCACUGGUGACCAGACCUACCUGCUUCGA | 0.067
AGCAUUUGAUUAUUUUUUUUAAAUACACUCUCUUAUUUUUCUACUUGUUUUUUUGUUAAUCACCGCAGGAUAUGACAACUCUUAUUUGAAUUGAUUUUUUCAUCUAAUGUAAUAAUGGAA | 2.63
CUCAAAGAGCUGCUCUCUUGGAAGGUUCUGAGCACGGAAGACUAUACAACAUGCUUUUCCCGCAAAAAUUUUGUCCAUGAAGCAGUGGACUAUGUUAUCGGUCACUUGAUCCAAGAGAAG | 0.0984
UUGAAAUCUCUACGAGAACUGAAUGUCAGAAGAAAUUACCUUAAAGUUUUACCACAAGAACCCGCCGAUCUUUCCUUGGUAAAGUUUGACUUUUCCUGCAACAAAGUGCUCGUGAUUCCA | 0.194
UUCUCCAAUGUUACGCUCGCUUGCCUAGCUUUACGAAUAUUGCUUUGUUUUCUGUUUAUGCACCGCCUUGAUUUGUUUGACUCCCCUCCCCCCAUUUACAUGCAUGCAAUCAGACAGGCC | 3.58

Study 3
Target: Interferon regulatory factor 5, full length, phosphomimetic (IRF5, Homo sapiens, UniProt Q13568-2, residues 1-514, K96S/S451D/S453D/S456D/S462D)
Technique: protein-binding microarray
Form: double-stranded DNA, one strand shown
Matrix: in vitro
Concentration: 250 nM
Setting: 60-bp whole probe
With: salmon DNA 0.4 mg/ml
Baseline: random background probes
Reading: higher = stronger binding
Constant ends, left off below: GCCTAGCAC … GTCTTGATTCGCTTGACGCTGCTG
Strand | log fluorescence
GTCGGTTTCGGTTCCGGGACGTGCTAG | 10.3 z-score
GACGATTTCAGTCTCGAGGCGTGCTAG | 1.34 z-score
TTAGCACTGGACTATCGGTTAGTGCTA | 5.58 z-score
TTAGGTATCGACACTGGATTAGTGCTA | 2.73 z-score
GACGGACTGCTTTTCCTCACGTGCTAG | 0.163 z-score
TTAGGTCTCGGAATGGGTTAGTGCTAG | -0.00836 z-score
TTAGGTTTCGGTCTAGGTTAGTGCTAG | 10.6 z-score
TCAAGTTTTGAGCTCTGACTGTGCTAG | 0.0543 z-score
GTCGGACTGGGTCTCGGGACGTGCTAG | -0.713 z-score
TTAGGTTTCGACTTCCGGTTAGTGCTA | 7.32 z-score
GGCGGTCTCGGTATCGGGACGTGCTAG | 0.891 z-score
ATAGAACTGGGGACTGGATTAGTGCTA | -0.103 z-score
GACGGTATCGACTGTCGGGACGTGCTA | 1.99 z-score
CAGAGCCTCAGGCCTCACACAGTGCTA | -0.811 z-score
GGGCCACAAAGCAATAAGAAGTGCTAG | -0.444 z-score
GACGGGATCGACTATCGGGACGTGCTA | 1.26 z-score

Study 4
Target: CRIPT, C-terminal peptide
Technique: DHFR complementation, deep sequencing
Matrix: yeast
Setting: single substitutions, model-inferred values
Baseline: wild type
Reading: higher = weaker binding
Parent: ERBIN, PDZ domain 1 (human); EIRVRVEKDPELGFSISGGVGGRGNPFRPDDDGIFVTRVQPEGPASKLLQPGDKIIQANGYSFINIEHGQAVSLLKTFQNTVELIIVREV; partner TKNYKQTSV
Substitution | binding free energy change
N25V | 0.651 kcal/mol
L74V | -0.00888 kcal/mol
K8H | 0.78 kcal/mol
R88K | 0.332 kcal/mol
I86C | 0.0169 kcal/mol
V6P | 0.685 kcal/mol
Y61G | 0.36 kcal/mol
H68V | 1.49 kcal/mol
P41E | 0.231 kcal/mol
G22L | 0.0198 kcal/mol
R3N | -0.0426 kcal/mol
N25A | 0.776 kcal/mol
Q50N | 0.0782 kcal/mol
I56S | 0.12 kcal/mol
G43W | 1.17 kcal/mol
L84N | 0.608 kcal/mol
Q40C | 0.266 kcal/mol
G19D | 1.18 kcal/mol
G24L | 1.46 kcal/mol
E1M | 0.203 kcal/mol
S17Y | 1.04 kcal/mol
R88F | 1.45 kcal/mol
S17F | 1.4 kcal/mol

Study 5
Target: BATF, bZIP domain (human)
Technique: DHFR protein complementation
Matrix: yeast
Setting: single substitutions, most at no-binding floor
Baseline: wild-type JUN-FOS pair
Reading: higher = stronger binding
Parent: JUN, bZIP domain (human); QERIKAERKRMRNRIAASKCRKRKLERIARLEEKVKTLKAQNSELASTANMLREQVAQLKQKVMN; partner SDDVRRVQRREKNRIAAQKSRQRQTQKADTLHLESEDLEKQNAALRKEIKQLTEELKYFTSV
Substitution | binding fitness [natural log]
M51N | 0.0185
Q58V | 0.0792
A29T | -0.0206
Q55A | -0.0526
L59H | -0.12
V35M | -0.117
T37S | 0.00586
L45T | -1.22
A46S | -0.00416
A29E | -0.104
E44Q | -0.0149
E33V | -0.192
V56G | -1.04
L59Q | -0.125
S47N | -0.0104
R53A | -0.195
R30S | 0.118
I28P | -0.0776
V56C | -0.202
T37L | 0.105

Study 6
Target: Histone acetyltransferase KAT6A, winged helix 1, GST fusion (KAT6A, Homo sapiens, UniProt Q92794, residues 1-85)
Technique: protein binding microarray
Form: double-stranded DNA, one strand shown
Matrix: in vitro
Concentration: not given
Setting: 8-mer, flanks averaged, mean of 2 arrays, mostly near background
Baseline: not given
Reading: higher = stronger binding
Residues (chain): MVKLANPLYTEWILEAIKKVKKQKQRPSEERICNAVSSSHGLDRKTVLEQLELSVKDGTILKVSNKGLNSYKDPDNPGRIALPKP
Strand | E-score
GGCTACCA | -0.0724
ATGTATTA | -0.148
GCCCTAAC | 0.127
CACAGACG | 0.015
AAGCTACC | 0.0165
AGGAATTC | -0.135
GTGTCTGA | -0.0373
CAGTTTAG | -0.157
AGAACAGA | -0.149
TCTGTGCA | -0.248
AAAGCGGG | 0.215
CCCTGCAC | -0.147
ACAGGTCC | -0.0418
GGACCCCC | -0.00303
AATACGAG | -0.22
ATATATAC | -0.0198
ATTCTGCA | -0.223
AGCTCATC | -0.0922
TAAAGTAA | -0.0359
ATTTAAGA | -0.216
ACCGCAAG | 0.0799
AGAAGGAT | -0.167
CAGTGCAG | -0.12
ATAACAAT | -0.213
GTCCGTCA | 0.0119

For quick reference, copied from above (study 1):
Substitution | normalised enrichment score
MPVARSLKLDGLL [K4A] | 0.385
MPVKKSLKFDGLL [R5K L9F] | 0.502
APVKRSLKLDGLL [M1A] | -0.0565
MPVKRSLKLDALL [G11A] | 0.243
MPVKASLKLDGLL [R5A] | 0.041
MPVKRSLALDGLL [K8A] | 0.362
MPVKKSLKLDGLL [R5K] | 0.181
MPVKRSAKLDGLL [L7A] | 0.141
MPVKRSLKLAGLL [D10A] | -0.104
MPVKASAKLDGLL [R5A L7A] | 0.0109
